Published values collected from several papers.
Lines come from different studies, so protocols differ. ± gives the spread as reported.

For `CC[C@H](C)[C@H](NC(=O)[C@@H](NC(=O)[C@H](CC(N)=O)NC(=O)[C@H](CCC(N)=O)NC(=O)[C@@H]1CCCN1C(=O)[C@@H](NC(=O)[C@H](Cc1ccc(O)cc1)NC(=O)CNC(=O)[C@H](Cc1ccc(O)cc1)NC(=O)[C@H](Cc1c[nH]c2ccccc12)NC(=O)[C@H](Cc1c[nH]cn1)NC(=O)[C@H](Cc1ccc(O)cc1)NC(=O)CCOCCOCCOCCOCCOCCOCCC(=O)NCCCN(CCCNC(=O)CCOCCOCCOCCOCCOCCOCCC(=O)N[C@@H](Cc1ccc(O)cc1)C(=O)N[C@@H](Cc1c[nH]cn1)C(=O)N[C@@H](Cc1c[nH]c2ccccc12)C(=O)N[C@@H](Cc1ccc(O)cc1)C(=O)NCC(=O)N[C@@H](Cc1ccc(O)cc1)C(=O)N[C@H](C(=O)N1CCC[C@H]1C(=O)N[C@@H](CCC(N)=O)C(=O)N[C@@H](CC(N)=O)C(=O)N[C@H](C(=O)N[C@H](C(=O)O)[C@@H](C)CC)C(C)C)[C@@H](C)O)CC(=O)NCCOCCOCCOCCOCCC(=O)N[C@@H](CCCCNC(=O)CC[C@H](C(=O)O)N1CCN(CC(=O)O)CCN(CC(=O)O)CC1)C(N)=O)[C@@H](C)O)C(C)C)C(=O)O` [gallium-68 labelled], the logD was -2.52 ± 0.03 (1-octanol/phosphate buffer; pH 7.4).
`C=C(C)[C@@H]1[C@H]2OC(=O)[C@@H]1[C@]1(O)C[C@H]3O[C@]34C(=O)O[C@H]2[C@]14C` has a logD of 0.723 (pH 7.4).
The logD of `COc1cc(C(=O)NCCOCCOCCOCCNC(=O)c2ccc([18F])nc2)ccc1NC(=O)C1NC(CC(C)(C)C)C(C#N)(c2ccc(Cl)cc2F)C1c1cccc(Cl)c1F` (stereo not drawn) is reported as 3 ± 0.1 (shake-flask; n-octanol/PBS; pH 7.4).
`C[C@H](O)[C@@H](NC(=O)[C@H]1CCCN1C(=O)[C@@H](CCCCN)NC(=O)[C@@H](CO)NC(=O)[C@@H](Cc1ccc(O)cc1)NC(=O)[C@@H](CC(N)=O)NC(=O)CCOCCOCCOCCNC(=O)CN1CCN(CC(=O)O)CCN(CC(=O)O)CCN(CC(=O)O)CC1)C(=O)N[C@H](CC(=O)O)C(=O)N[C@H](CCCNC(=N)N)C(=O)N[C@H](CCC(N)=O)C(=O)N[C@H](Cc1ccc(O)cc1)C(=O)N[C@H](Cc1c[nH]cn1)C(=O)N[C@H](Cc1ccccc1)C(N)=O` [copper-64 labelled] has a logD of -3.5 (shake-flask; 1-octanol/water).
The logD of `O=C(OCCOCC[18F])c1ccccc1-c1c2cc3c4c(c2[o+]c2c5c6c(cc12)CCCN6CCC5)CCCN4CCC3` is reported as 1.97 ± 0.01 (octanol/PBS; pH 7.4).
For `CC(=O)O[C@H]1CC[C@]2(C)[C@H]3C[C@@H](OC(C)=O)[C@]4(C)[C@@H](C5=CC(=O)OC5)CC[C@]4(O)[C@@H]3CC[C@@]2(n2nnc3ccccc32)C1`, the logD was 2.91 (pH 7.4).
The logD of `COCC(=O)NCCSc1c(-c2ccc(Br)cc2)[nH]c2ccccc12` is reported as 5 (pH 7.4).
`CC[C@H](C)[C@H](NC(=O)CNC(=O)[C@H](Cc1ccccc1)NC(=O)[C@H](CCCCN)NC(=O)[C@H](CCCCN)NC(=O)[C@H](CCCNC(=N)N)NC(=O)[C@H](CCCNC(=N)N)NC(=O)[C@H](CCCNC(=N)N)NC(=O)[C@H](CCC(N)=O)NC(=O)[C@H](CCCNC(=N)N)NC(=O)[C@H](CCCNC(=N)N)NC(=O)[C@H](CCCCN)NC(=O)[C@H](CCCCN)NC(=O)[C@H](CCCNC(=N)N)NC(=O)CNC(=O)[C@@H](N)Cc1ccc(O)cc1)C(=O)N[C@H](C(=O)N[C@@H](CC(N)=O)C(=O)N[C@@H](CO)C(=O)N[C@@H](CCC(N)=O)C(=O)N[C@@H](CC(C)C)C(=O)N[C@@H](CCCCN)C(=O)N1CCC[C@H]1C(=O)O)[C@@H](C)O` has a logD of 3.11 ± 0.03 (derivative UV-vis spectrophotometry; DMPC:Chol large unilamellar vesicles vs PBS; 30 min, pH 7.4, 37 °C, lipid ratio 85:15).
`CC(N)(CC(F)(F)F)C1C2OC(=O)C1C1(O)CC3OC34C(=O)OC2C14C` (stereo not drawn) has a logD of 0.609 (pH 7.4).
For `CCNc1cc2[o+]c3cc(NCC)c(C)cc3c(-c3ccccc3C(=O)OCCOCC[18F])c2cc1C`, the logD was 1.96 ± 0.05 (octanol/PBS; pH 7.4).
`CC(=O)O[C@H]1CC[C@@]2(C)[C@H](CC[C@@H]3[C@@H]2C[C@@H](OC(C)=O)[C@]2(C)[C@@H](C4=CC(=O)OC4)CC[C@]32O)C1` has a logD of 2.64 (pH 7.4).
For `NC1CCN(C(=O)OC2CCCC3(C2)OOC2(O3)C3CC4CC(C3)CC2C4)CC1` (stereo not drawn), the logD was 2.44 (octanol/PBS; pH 7.4).

Some of these lines once more:
`C[C@H](O)[C@@H](NC(=O)[C@H]1CCCN1C(=O)[C@@H](CCCCN)NC(=O)[C@@H](CO)NC(=O)[C@@H](Cc1ccc(O)cc1)NC(=O)[C@@H](CC(N)=O)NC(=O)CCOCCOCCOCCNC(=O)CN1CCN(CC(=O)O)CCN(CC(=O)O)CCN(CC(=O)O)CC1)C(=O)N[C@H](CC(=O)O)C(=O)N[C@H](CCCNC(=N)N)C(=O)N[C@H](CCC(N)=O)C(=O)N[C@H](Cc1ccc(O)cc1)C(=O)N[C@H](Cc1c[nH]cn1)C(=O)N[C@H](Cc1ccccc1)C(N)=O` [copper-64 labelled] has a logD of -3.5 (shake-flask; 1-octanol/water).
The logD of `O=C(OCCOCC[18F])c1ccccc1-c1c2cc3c4c(c2[o+]c2c5c6c(cc12)CCCN6CCC5)CCCN4CCC3` is reported as 1.97 ± 0.01 (octanol/PBS; pH 7.4).
